Experimental data collected from several papers.
Lines come from different studies, so protocols differ. “And” joins repeats or separate records; there may be more than shown. Numbers after ± are the reported error.
Cell line: RAW264.7

CN(c1ccc(NC(=O)c2cccc(C(=N)N)c2)cc1OCc1ccc(C(F)(F)F)cc1)S(=O)(=O)Cc1ccccc1 — IC50 (cell growth, MTT; 48 h): > 500 µM
CC(C)c1c(C(=O)Nc2ccccc2)c(-c2ccccc2)c(-c2ccc(F)cc2)n1CC[C@@H](O)C[C@@H](O)CC(=O)O — foam cell formation (lipid droplet accumulation, Oil Red O staining; 24 h, 48 h oxLDL pre-exposure, with: oxidized LDL): decreased
CC(=O)O[C@@H]1CC[C@@]2(C)[C@@H](CC[C@]3(C)[C@@H]2C(=O)C=C2[C@@H]4[C@@H](C)[C@H](C)CC[C@]4(C)CC[C@]23C)[C@@]1(C)C(=O)O — cytokine production (ELISA, refers to: TNF-α, IL-6, IFN-γ; concentration not given, with: LPS; baseline: LPS alone): decreased
N=C(N)Nc1ccc(NC(=O)c2ccc(Cl)c(Cl)c2)cc1OCc1ccc(C(F)(F)F)cc1 — IC50 (cell growth, MTT; 48 h): > 500 µM
Cc1ccc(S(=O)(=O)NNC(=O)COC(=O)c2ccccc2Nc2cccc(C(F)(F)F)c2)cc1 — PGE2 level (ELISA; concentration not given, 24 h, with: LPS 100 ng/mL): 88.2 pg/mL and 61.6 pg/mL
Cc1sc2c(c1C)C(c1ccc(Cl)cc1)=N[C@@H](CC(=O)NCCCCCCCCNC(=O)COc1cccc3c1C(=O)N(C1CCC(=O)NC1=O)C3=O)c1nnc(C)n1-2 (stereo partly shown) — CD206+ cells (macrophage polarization, flow cytometry; 0.25 µg/mL, 24 h, with: IL-4 20 ng/mL pretreatment): 0.19% and 0.22% and 0.17%
O=c1cc(-c2ccccc2)oc2cc(O)c(O)c(O)c12 — foam cell formation (lipid droplet accumulation, Oil Red O staining; 24 h, 48 h oxLDL pre-exposure, with: oxidized LDL): decreased
N=C(N)Nc1ccc(NC(=O)c2ccc(C(F)(F)F)cc2C(F)(F)F)cc1OCc1ccc(C(F)(F)F)cc1 — IC50 (cell growth, MTT; 48 h): > 500 µM
C=C1C[C@](OC)([C@H](OCOC/C=C/B2OC(CC)(CC)C(CC)(CC)O2)C(=O)NC[C@@H]2C[C@@H](OC)C(C)(C)[C@@H](C[C@@H](COC)OC)O2)O[C@H](C)[C@@H]1C — IC50 (cell viability, sulforhodamine B; 48 h, 37 °C, without H2O2): 0.119 ± 0.037 µM
O=C(COC(=O)c1ccccc1Nc1cccc(C(F)(F)F)c1)NNS(=O)(=O)c1ccccc1 — PGE2 level (ELISA; concentration not given, 24 h, with: LPS 100 ng/mL): 88.3 pg/mL and 61.6 pg/mL

Repeated from above:
N=C(N)Nc1ccc(NC(=O)c2ccc(C(F)(F)F)cc2C(F)(F)F)cc1OCc1ccc(C(F)(F)F)cc1 — IC50 (cell growth, MTT; 48 h): > 500 µM
